Measured values collected from several papers.
Numbered parts are unrelated; each lists some results of a single study. Changes are numbered by the printed parent chain.

Series 1
Target: ABI1, truncated, D143A, DHFR fusion (Arabidopsis thaliana)
Method: DHFR PCA, deep sequencing
Sample: yeast
Notes: methotrexate growth selection, single substitutions
Together with: (+)-ABA 0.11 µM
Reference: wild-type fitted maximum
Reading: higher = stronger binding
Quantity: relative binding score
Parent: PYL1, truncated, DHFR fusion (Arabidopsis thaliana); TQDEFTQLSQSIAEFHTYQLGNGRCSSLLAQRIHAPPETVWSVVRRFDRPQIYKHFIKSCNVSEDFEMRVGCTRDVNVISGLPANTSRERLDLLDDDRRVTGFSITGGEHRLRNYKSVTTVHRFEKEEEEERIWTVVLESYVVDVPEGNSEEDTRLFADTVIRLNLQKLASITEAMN; partner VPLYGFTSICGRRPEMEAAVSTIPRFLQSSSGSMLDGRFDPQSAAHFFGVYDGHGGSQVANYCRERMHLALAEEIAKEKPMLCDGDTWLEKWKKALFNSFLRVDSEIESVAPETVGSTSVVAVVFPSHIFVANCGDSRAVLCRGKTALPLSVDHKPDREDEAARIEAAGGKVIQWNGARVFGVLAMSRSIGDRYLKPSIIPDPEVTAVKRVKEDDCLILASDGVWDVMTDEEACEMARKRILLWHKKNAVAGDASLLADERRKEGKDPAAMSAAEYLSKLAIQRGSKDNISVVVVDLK
K58E: 11%
K116P: 7.07%
R98H: 4.05%
I33P: 7.94%
N61P: 3.27%
N149F: 2%

Series 2
Target: CCNB3, cyclin fold, Cln2 fusion (human)
Method: yeast growth competition, sequencing
Sample: yeast
Notes: strong parent motif
Reference: not given
Reading: higher = stronger binding
Quantity: normalised enrichment score
Parent: BRCA2 docking peptide (human); PSIKRNLLNEFDR; partner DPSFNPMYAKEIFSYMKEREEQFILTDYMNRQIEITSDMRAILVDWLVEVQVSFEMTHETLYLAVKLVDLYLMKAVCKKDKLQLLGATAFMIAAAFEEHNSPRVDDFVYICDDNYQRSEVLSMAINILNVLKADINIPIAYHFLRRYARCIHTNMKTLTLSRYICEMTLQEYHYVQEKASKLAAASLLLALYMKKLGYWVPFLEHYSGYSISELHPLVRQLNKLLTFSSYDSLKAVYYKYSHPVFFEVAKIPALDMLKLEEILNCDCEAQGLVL
R13P: 0.318
P1R: 1.99
F11G: -0.127
L8T: 0.544

Series 3
Target: Fragile X messenger ribonucleoprotein 1, C-terminal low-complexity region (Fmr1, Mus musculus, UniProt P35922)
Method: RNA Bind-n-Seq
Molecule type: RNA
Sample: in vitro
Concentration: 200 nM
Notes: whole 134-nt RNA, ends assumed
Together with: 150 mM LiCl
Reference: input library
Reading: higher = stronger binding
Quantity: log2 enrichment
Library: 7-deaza-guanosine replaces G
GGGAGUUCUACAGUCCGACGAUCCCUGUGCUACACAUCGUAUGUACCGAAUCGGGGUUUUUUGGUUUUUUGGGGUUUUUUGGGAAAGUAUUAUGUUACGCCGUUCGGAUCUGCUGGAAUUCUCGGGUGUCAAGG: -1.42
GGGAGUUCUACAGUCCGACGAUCUCCUCAAGUCCUGUGCUACACAUCGUAUGUACCGAAUCGGUGGGUGGUGGGAAAGUAUUAUGUUACGCCGUUCGGAUCUGCACUUCCAGCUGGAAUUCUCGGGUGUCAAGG: 0.413
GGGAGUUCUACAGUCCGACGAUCAGUCCUGUGCUACACAUCGUAUGUACCGAAUCGGGGUUUUUGGGUUUUUGGUUUUUGGAAAGUAUUAUGUUACGCCGUUCGGAUCUGCACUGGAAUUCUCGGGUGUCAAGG: -1.51
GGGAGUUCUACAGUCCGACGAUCCCUGUGCUACACAUCGUAUGUACCGAAUCAAAUUUUUUUAAACCCCCCCAAAUUUUUAAAAAAGUAUUAUGUUACGCCGUUCGGAUCUGCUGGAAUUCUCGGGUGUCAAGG: 0.646
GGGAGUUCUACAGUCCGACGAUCUAACUUUAGAGGAGGAUCUGAUGGAUAUGGCAGUGGACGUGGAUUUGGGGAUGGCUAUAAUGGGUAUGGAGGAGGACCUGGAGGCGGCAAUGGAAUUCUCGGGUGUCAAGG: 0.635
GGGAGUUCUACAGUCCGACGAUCACCAUGCAGGUGGGCUUCUUUGGGAAGUGGGGCAAGGGGGGGAUAGGGAGGGGGGUAACACUUUGGGAACAGGUGGUCCCAGGUCGUUUCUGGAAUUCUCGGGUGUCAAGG: 0.531
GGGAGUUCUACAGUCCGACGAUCAAGUCCUGUGCUACACAUCGUAUGUACCGAAUCAAACCCAAAUUUAAAUUUUUAAAAAAGUAUUAUGUUACGCCGUUCGGAUCUGCACUUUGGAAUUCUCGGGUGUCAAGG: -0.682

Other studies, line by line
PhoQ, residues 284 288 289 292 302 303 TASMAF — fold induction (PhoP, residues 12 14 15 18 19 LHSVQ (Escherichia coli, UniProt P23836); Sort-seq, refers to: YFP reporter; E. coli; PhoQ-PhoP variant library, together with: 10 µM Mg2+; reference: high Mg2+ state, higher = stronger signaling): 10

Excerpt of the above (series 1):
I33P: 7.94%
